Assay results of several laboratories.
Lines come from different studies, so protocols differ.

For `CNC(=N)NC(=N)NCCCCCCNC(=N)NC(=N)NC`, the Papp B→A was 0.37 ×10⁻⁶ cm/s (Caco-2; 5 µM, 2 h).
`N#C/N=C(\N)Nc1cccc(C(=O)NCC(=O)NC[C@H](NC(=O)c2c(Cl)cc(-c3ccccc3)cc2Cl)C(=O)O)c1` has a Papp B→A of 9.1 ×10⁻⁶ cm/s (Caco-2).
With `N#Cc1ccnc(N2C(=O)CC[C@H]2C(=O)N(c2cc(F)cc(F)c2)[C@H](C(=O)NC2CC(F)(F)C2)c2ccccc2Cl)c1` (stereo in doubt) the Papp A→B was 14.2 ×10⁻⁶ cm/s (Caco-2).
`O=c1[nH]c2ccccc2c(=O)n1O` gave a Papp B→A of 4.9 ×10⁻⁶ cm/s (Caco-2; 10 µM).
The Papp B→A of `O=c1c(-c2cnn(-c3ccc(Cl)cc3)c2)c(C(F)(F)F)oc2c(O)c(O)ccc12` is reported as 52.7 ×10⁻⁶ cm/s (Caco-2).
`N#Cc1ccnc(N2C(=O)CC[C@H]2C(=O)N(c2cc(F)cc(S(N)(=O)=O)c2)[C@H](C(=O)NC2CC(F)(F)C2)c2ccccc2Cl)c1` gave a Papp A→B of 0.19 ×10⁻⁶ cm/s (Caco-2).
`CCCCC(CC)CNC(=N)NC(=N)NCCCCCCCCNC(=N)NC(=N)NCC(CC)CCCC` (stereo not drawn) gave a Papp A→B of less than 0.04 ×10⁻⁶ cm/s (Caco-2; 5 µM, 2 h).
`O=C(CNC(=O)c1cccc(NC2=NCC(F)(F)CN2)c1)NC[C@H](NC(=O)c1c(Cl)cc(-c2ccccc2)cc1Cl)C(=O)O` gave a Papp A→B of 3 ×10⁻⁶ cm/s (Caco-2).
`CCC(CC)CNC(=N)NC(=N)NCCCCCCNC(=N)NC(=N)NCC(CC)CC` has a Papp A→B of 0.27 ×10⁻⁶ cm/s (Caco-2; 5 µM, 2 h).
With `O=C(CNC(=O)c1cccc(NC2=NCCCO2)c1)NC[C@H](NC(=O)c1c(Cl)cc(-c2ccccc2)cc1Cl)C(=O)O` the Papp B→A was 3.4 ×10⁻⁶ cm/s (Caco-2).
`N#Cc1cccc(-c2ccc(=O)n(Cc3cccc(-c4ncc(OCC5CCN(CC(=O)N6CCN(c7ccc8c(c7)C(=O)N(C7CCC(=O)NC7=O)C8=O)CC6)CC5)cn4)c3)n2)c1` (stereo not drawn) gave a Papp B→A of 0.79 ×10⁻⁶ cm/s (Caco-2; 2 µM, 2 h, pH 7.4).
With `CO[C@@H](C[C@H]1C(C)=CC[C@@H]2[C@]3(C)C[C@H](O[C@@H]4O[C@@H](C)[C@H](O)[C@@H](O)[C@H]4O)[C@@H](O)C(C)(C)[C@H]3CC[C@]21C)[C@H](N)C(=O)O` the Papp B→A was 0.07 ×10⁻⁶ cm/s (Caco-2; 5 µM, 1 h).
`O=C(CNC(=O)c1cccc(NC2=NCCCN2)c1)NC[C@H](NC(=O)c1c(Cl)cc(-c2ccccc2)cc1Cl)C(=O)O` has a Papp A→B of 0.7 ×10⁻⁶ cm/s (Caco-2).
The Papp B→A of `CN1CCC[C@@H]1C(=O)N[C@@H](Cc1ccc(-c2ccccc2)cc1)B(O)O` is reported as 14 ×10⁻⁶ cm/s (Caco-2; 5 µM, 1 h).
The Papp A→B of `CS(=O)(=O)c1ccc(-c2cc(Cl)c(C(=O)N[C@@H](CNC(=O)CNC(=O)c3cccc(NC(=N)N)c3)C(=O)O)c(Cl)c2)cc1` is reported as 0.2 ×10⁻⁶ cm/s (Caco-2).
For `CCCCC(CC)CNC(=N)NC(=N)NCCC` (stereo not drawn), the Papp B→A was 6.74 ×10⁻⁶ cm/s (Caco-2; 5 µM, 2 h).
The Papp A→B of `O=c1c(-c2cnn(-c3ccccc3)c2)c(C(F)(F)F)oc2c(O)c(O)ccc12` is reported as 31.4 ×10⁻⁶ cm/s (Caco-2).
`CN(C)c1ccc(CNCCC2CCOC(C)(C)C2)cc1.Cl` (stereo not drawn) gave a relative translation of 105% (Trypanosoma cruzi; reporter mRNA translation, inhibitor, measured: capped polyadenylated Renilla luciferase mRNA; cell-free extract; concentration not given; reference: control RNA).

Repeated from above:
`CCCCC(CC)CNC(=N)NC(=N)NCCCCCCCCNC(=N)NC(=N)NCC(CC)CCCC` (stereo not drawn) gave a Papp A→B of less than 0.04 ×10⁻⁶ cm/s (Caco-2; 5 µM, 2 h).
`O=C(CNC(=O)c1cccc(NC2=NCC(F)(F)CN2)c1)NC[C@H](NC(=O)c1c(Cl)cc(-c2ccccc2)cc1Cl)C(=O)O` gave a Papp A→B of 3 ×10⁻⁶ cm/s (Caco-2).
